{"data": "Measurements collected from several papers", "note": "Each numbered part is a random draw from the data of one study; scales do not carry over between parts.", "sequence of UniProt Q12866 (whole entry, looked up)": "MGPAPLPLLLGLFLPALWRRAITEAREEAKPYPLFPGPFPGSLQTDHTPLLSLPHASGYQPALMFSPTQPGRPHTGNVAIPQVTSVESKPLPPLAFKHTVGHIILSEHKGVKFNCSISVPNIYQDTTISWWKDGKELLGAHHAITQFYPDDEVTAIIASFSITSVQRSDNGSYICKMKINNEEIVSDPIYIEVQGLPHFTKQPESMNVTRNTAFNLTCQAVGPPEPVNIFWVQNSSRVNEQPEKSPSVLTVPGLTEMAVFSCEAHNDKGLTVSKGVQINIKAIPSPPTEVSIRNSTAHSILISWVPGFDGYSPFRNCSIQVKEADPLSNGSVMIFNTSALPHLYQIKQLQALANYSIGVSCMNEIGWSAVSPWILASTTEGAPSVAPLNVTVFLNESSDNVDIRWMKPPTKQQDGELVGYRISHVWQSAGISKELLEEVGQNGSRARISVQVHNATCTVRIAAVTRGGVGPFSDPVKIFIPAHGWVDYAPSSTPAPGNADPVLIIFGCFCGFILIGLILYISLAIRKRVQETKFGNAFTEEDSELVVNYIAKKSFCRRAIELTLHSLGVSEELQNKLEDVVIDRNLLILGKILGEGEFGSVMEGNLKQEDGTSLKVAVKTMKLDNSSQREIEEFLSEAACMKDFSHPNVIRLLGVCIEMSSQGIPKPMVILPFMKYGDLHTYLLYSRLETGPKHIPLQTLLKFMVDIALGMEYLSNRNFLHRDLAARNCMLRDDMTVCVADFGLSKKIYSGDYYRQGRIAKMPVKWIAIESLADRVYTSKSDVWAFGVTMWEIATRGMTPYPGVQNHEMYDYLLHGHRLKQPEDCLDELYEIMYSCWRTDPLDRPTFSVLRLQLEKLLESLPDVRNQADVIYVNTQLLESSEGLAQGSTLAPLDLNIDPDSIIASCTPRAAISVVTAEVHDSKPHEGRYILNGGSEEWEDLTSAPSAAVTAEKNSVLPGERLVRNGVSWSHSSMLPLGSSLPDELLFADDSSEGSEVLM", "sequence of UniProt P08069 (whole entry, looked up)": "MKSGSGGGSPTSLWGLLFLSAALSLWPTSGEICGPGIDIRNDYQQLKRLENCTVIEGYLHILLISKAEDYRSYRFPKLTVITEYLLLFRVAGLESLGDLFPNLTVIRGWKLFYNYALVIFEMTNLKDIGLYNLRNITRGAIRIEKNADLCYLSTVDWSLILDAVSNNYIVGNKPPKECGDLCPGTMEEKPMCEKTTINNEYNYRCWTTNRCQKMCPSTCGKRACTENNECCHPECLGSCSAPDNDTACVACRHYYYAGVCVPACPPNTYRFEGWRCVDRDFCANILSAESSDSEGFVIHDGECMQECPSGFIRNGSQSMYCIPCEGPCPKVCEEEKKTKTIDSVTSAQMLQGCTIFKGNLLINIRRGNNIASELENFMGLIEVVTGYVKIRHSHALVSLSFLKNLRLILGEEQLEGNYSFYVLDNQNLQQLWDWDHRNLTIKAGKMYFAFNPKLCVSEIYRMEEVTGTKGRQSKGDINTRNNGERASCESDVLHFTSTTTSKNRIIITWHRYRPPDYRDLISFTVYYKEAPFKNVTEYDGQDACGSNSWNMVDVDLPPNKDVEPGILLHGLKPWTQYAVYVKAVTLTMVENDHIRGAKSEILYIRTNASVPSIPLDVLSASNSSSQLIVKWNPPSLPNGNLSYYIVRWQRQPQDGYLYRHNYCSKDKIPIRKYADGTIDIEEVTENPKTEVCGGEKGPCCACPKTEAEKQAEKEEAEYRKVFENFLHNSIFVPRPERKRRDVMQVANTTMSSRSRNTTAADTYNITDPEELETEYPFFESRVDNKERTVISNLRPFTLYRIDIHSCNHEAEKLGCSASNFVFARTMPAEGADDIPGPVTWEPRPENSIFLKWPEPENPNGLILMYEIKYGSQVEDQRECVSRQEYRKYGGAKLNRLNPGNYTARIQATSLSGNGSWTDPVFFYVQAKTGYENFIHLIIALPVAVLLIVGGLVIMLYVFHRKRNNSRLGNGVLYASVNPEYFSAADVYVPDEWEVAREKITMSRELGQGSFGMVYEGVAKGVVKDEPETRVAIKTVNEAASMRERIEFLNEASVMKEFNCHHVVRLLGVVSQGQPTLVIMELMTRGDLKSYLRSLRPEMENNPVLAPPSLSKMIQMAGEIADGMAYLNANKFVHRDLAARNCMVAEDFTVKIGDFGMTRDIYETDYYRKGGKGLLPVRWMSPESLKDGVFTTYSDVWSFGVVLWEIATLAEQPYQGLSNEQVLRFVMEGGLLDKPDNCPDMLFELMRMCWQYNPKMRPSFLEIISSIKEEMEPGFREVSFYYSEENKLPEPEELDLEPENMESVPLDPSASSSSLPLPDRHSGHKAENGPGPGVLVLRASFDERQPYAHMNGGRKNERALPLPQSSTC", "sequence of UniProt P21127 (whole entry, looked up)": "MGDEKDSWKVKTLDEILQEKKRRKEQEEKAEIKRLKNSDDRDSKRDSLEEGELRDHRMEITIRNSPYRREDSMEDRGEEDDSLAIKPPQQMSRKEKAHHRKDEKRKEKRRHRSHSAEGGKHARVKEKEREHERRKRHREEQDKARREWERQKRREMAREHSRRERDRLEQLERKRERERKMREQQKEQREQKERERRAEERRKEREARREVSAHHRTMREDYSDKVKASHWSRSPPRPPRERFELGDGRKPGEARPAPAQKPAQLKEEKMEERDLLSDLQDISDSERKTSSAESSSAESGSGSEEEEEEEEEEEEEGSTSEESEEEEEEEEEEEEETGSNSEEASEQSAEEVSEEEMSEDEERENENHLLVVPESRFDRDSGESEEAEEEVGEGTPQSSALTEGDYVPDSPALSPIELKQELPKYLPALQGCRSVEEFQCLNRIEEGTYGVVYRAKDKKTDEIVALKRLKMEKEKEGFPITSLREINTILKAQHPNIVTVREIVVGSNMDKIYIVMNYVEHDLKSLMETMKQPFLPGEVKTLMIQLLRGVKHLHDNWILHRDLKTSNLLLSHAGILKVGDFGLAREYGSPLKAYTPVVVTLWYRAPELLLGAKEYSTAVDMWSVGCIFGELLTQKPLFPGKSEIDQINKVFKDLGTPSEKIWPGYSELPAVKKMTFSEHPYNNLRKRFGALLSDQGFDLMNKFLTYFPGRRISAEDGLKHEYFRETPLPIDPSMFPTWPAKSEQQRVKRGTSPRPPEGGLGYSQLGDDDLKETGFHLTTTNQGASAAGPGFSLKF", "sequence of UniProt Q9Y616 (whole entry, looked up)": "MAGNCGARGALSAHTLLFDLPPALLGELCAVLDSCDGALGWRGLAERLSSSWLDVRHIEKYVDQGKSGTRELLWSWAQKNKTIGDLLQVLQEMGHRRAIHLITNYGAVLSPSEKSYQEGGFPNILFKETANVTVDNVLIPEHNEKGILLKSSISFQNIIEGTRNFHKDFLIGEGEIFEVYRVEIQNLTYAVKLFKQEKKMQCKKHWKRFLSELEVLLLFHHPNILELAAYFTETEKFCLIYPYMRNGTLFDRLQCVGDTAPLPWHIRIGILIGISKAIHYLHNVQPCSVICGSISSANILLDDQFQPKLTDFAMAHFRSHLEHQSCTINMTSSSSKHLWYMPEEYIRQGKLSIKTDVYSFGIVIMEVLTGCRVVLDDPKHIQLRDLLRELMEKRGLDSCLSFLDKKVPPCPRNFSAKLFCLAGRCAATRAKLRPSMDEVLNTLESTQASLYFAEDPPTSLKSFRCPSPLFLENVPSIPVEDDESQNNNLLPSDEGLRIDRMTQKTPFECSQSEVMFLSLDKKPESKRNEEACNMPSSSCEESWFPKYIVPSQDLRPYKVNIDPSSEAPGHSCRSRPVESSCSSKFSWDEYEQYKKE"}
{"data": "Block 1", "target": "Protein-tyrosine kinase 2-beta (PTK2B, Homo sapiens, UniProt Q14289)", "observed": "enzyme activity", "action": "inhibitor", "tested at": "0.5 µM", "reference": "control", "sequence of UniProt Q14289 (whole entry, looked up)": "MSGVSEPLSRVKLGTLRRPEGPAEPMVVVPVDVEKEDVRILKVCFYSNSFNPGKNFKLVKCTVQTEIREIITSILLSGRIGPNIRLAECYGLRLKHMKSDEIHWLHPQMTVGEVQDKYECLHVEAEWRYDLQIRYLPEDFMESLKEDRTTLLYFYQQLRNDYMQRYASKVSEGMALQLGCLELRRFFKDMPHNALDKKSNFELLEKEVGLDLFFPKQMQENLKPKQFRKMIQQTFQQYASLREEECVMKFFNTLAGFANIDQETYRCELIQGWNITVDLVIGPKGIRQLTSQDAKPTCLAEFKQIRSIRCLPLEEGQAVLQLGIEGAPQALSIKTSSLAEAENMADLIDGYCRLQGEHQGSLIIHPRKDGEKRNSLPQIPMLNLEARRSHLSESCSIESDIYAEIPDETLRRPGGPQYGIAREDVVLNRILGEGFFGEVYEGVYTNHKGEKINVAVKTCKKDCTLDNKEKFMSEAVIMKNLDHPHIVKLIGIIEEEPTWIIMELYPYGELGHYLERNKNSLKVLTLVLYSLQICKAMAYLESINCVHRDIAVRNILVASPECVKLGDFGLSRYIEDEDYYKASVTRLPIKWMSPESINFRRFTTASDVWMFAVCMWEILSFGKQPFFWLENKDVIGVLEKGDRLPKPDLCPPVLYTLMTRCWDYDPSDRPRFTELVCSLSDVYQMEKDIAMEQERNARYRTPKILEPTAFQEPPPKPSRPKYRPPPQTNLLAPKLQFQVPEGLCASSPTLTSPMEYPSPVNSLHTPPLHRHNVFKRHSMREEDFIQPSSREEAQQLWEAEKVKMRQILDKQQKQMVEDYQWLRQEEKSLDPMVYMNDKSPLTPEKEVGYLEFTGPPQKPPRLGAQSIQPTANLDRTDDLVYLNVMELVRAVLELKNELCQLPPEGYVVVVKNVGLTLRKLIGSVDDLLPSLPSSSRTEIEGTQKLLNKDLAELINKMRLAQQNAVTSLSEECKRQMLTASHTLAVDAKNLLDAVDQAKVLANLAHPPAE"}
{"Compound": "O=S(=O)(c1cccc2cnccc12)N1CCCNCC1", "remaining activity": "90.6%"}
{"Compound": "OCC(O)CCON=C1C(c2c(O)[nH]c3ccccc23)=Nc2ccccc21 (centres unmarked)", "remaining activity": "30.5%"}
{"Compound": "CN(C)c1ccc(C=C2C(=O)Nc3ccccc32)cc1", "remaining activity": "94.5%"}
{"Compound": "Cc1nc(-c2ccccc2)c(-c2ccncc2)o1", "remaining activity": "100%"}
{"Compound": "COc1ccc(C(=O)Nc2sc3c(c2C(N)=O)CCCC3)cc1OC", "remaining activity": "95.5%"}
{"Compound": "O=C(Nc1cccc(Nc2cc(Nc3cccc(C(F)(F)F)c3)ncn2)c1)C1CC1", "remaining activity": "89.6%"}
{"Compound": "N#CC(C#N)=C(N)/C(C#N)=C/c1ccc(O)cc1", "remaining activity": "97.4%"}
{"Compound": "Nc1ncnc2n[nH]c(Nc3ccc(F)cc3)c12", "remaining activity": "101%"}
{"Compound": "COc1cc2nccc(Oc3ccc(NC(=S)NC(=O)c4ccccc4C)cc3)c2cc1OC", "remaining activity": "93.4%"}
{"Compound": "COc1cc2ncnc(Nc3ccc(Oc4ccccc4)cc3)c2cc1OC", "remaining activity": "89%"}
{"Compound": "NCCNc1ncc(C(N)=O)c(Nc2cccc(C(F)(F)F)c2)n1", "remaining activity": "47.5%"}
{"Compound": "O=C1NC(=O)C(c2cn(CCCO)c3ncccc23)=C1c1cnccn1", "remaining activity": "94%"}
{"Compound": "O=C(O)c1ccc2c3c1cccc3c(=O)n1c3ccccc3nc21", "remaining activity": "69.2%"}
{"Compound": "Cn1c2ccccc2c2c3c(c4c5ccccc5n(CCC#N)c4c21)CNC3=O", "remaining activity": "26.7%"}
{"Compound": "Oc1ccc(-c2nc(-c3ccncc3)c(-c3ccc(F)cc3)[nH]2)cc1", "remaining activity": "96.2%"}
{"Compound": "O=C1NC(=O)C(c2cn(CCCn3ccnc3)c3ccccc23)=C1Nc1ccccc1", "remaining activity": "93.3%"}
{"data": "Block 2", "SMILES": "O=C1CCc2cc(Nc3cc(OC4CCOCC4)c([N+](=O)[O-])cc3Cl)ccc2N1", "tested at": "1 µM"}
{"target": "FLT4 (Homo sapiens, UniProt P35916)", "observed": "cell-free assay", "technique": "competition with immobilised ligand", "remaining binding": "97%"}
{"target": "Tyrosine-protein kinase ABL1, phosphorylated (ABL1, Homo sapiens, UniProt P00519, F317I)", "observed": "binding", "remaining binding": "92%"}
{"target": "MAP3K7 (Homo sapiens, UniProt O43318)", "observed": "cell-free assay", "technique": "competition with immobilised ligand", "remaining binding": "95%"}
{"target": "CDK11B (Homo sapiens, UniProt P21127)", "observed": "cell-free assay", "technique": "competition with immobilised ligand", "remaining binding": "98%"}
{"target": "PLK3 (Homo sapiens, UniProt Q9H4B4)", "observed": "cell-free assay", "technique": "competition with immobilised ligand", "remaining binding": "88%"}
{"target": "MERTK (Homo sapiens, UniProt Q12866)", "observed": "cell-free assay", "technique": "competition with immobilised ligand", "remaining binding": "100%"}
{"target": "IGF1R (Homo sapiens, UniProt P08069)", "observed": "cell-free assay", "technique": "competition with immobilised ligand", "remaining binding": "86%"}
{"data": "Block 3", "Compound": "CN1CCN(C(=O)c2ccc(NC(=O)Nc3ccc(N(C)c4ccnc(Nc5ccc(CS(C)(=O)=O)cc5)n4)cc3)cc2)CC1", "technique": "competitive binding panel", "tested at": "1 µM", "reference": "vehicle"}
{"target": "MERTK (Homo sapiens, UniProt Q12866)", "remaining binding": "56%"}
{"target": "IRAK3 (Homo sapiens, UniProt Q9Y616)", "remaining binding": "0.1%"}
{"target": "MAP3K6 (Homo sapiens, UniProt O95382)", "item": "ASK2", "remaining binding": "67%"}
{"target": "PRKD2 (Homo sapiens, UniProt Q9BZL6)", "remaining binding": "100%"}
{"target": "PIK3CA (Homo sapiens, UniProt P42336, I800L)", "remaining binding": "98%"}
{"target": "PIM3 (Homo sapiens, UniProt Q86V86)", "remaining binding": "100%"}
{"target": "STK4 (Homo sapiens, UniProt Q13043)", "item": "MST1", "remaining binding": "96%"}
{"data": "Block 4", "cell line": "HaCaT", "tested at": "100 µM", "time": "36 h"}
{"SMILES": "Cc1cccc(Nc2ccccc2C(=O)O)c1C", "viability": "99.4%"}
{"SMILES": "C[C@]12CCC(=O)C=C1[C@@H]1C[C@@H]1[C@H]1[C@@H]3[C@@H]4C[C@@H]4[C@@]4(CCC(=O)O4)[C@@]3(C)CC[C@@H]12", "viability": "52.2%"}
{"SMILES": "O=C(O)CCCN1CCC(O[C@@H](c2ccc(Cl)cc2)c2ccccn2)CC1", "viability": "94.4%"}
{"SMILES": "CCOC(=O)C1=C(C)NC(C)=C(C(=O)OC)C1c1cccc([N+](=O)[O-])c1 (centres unmarked)", "viability": "34.2%"}
{"SMILES": "CN1C(C(=O)Nc2ccccn2)=C(O)c2sc(Cl)cc2S1(=O)=O", "viability": "49.3%"}
{"note": "Excerpt of the above (block 1):"}
{"Compound": "CN(C)c1ccc(C=C2C(=O)Nc3ccccc32)cc1", "remaining activity": "94.5%"}
{"Compound": "Cc1nc(-c2ccccc2)c(-c2ccncc2)o1", "remaining activity": "100%"}
{"Compound": "COc1ccc(C(=O)Nc2sc3c(c2C(N)=O)CCCC3)cc1OC", "remaining activity": "95.5%"}
{"Compound": "O=C(Nc1cccc(Nc2cc(Nc3cccc(C(F)(F)F)c3)ncn2)c1)C1CC1", "remaining activity": "89.6%"}
